Measurements of several laboratories.
Numbers after ± are the reported error.
Sequence of UniProt P05177 (whole entry, looked up): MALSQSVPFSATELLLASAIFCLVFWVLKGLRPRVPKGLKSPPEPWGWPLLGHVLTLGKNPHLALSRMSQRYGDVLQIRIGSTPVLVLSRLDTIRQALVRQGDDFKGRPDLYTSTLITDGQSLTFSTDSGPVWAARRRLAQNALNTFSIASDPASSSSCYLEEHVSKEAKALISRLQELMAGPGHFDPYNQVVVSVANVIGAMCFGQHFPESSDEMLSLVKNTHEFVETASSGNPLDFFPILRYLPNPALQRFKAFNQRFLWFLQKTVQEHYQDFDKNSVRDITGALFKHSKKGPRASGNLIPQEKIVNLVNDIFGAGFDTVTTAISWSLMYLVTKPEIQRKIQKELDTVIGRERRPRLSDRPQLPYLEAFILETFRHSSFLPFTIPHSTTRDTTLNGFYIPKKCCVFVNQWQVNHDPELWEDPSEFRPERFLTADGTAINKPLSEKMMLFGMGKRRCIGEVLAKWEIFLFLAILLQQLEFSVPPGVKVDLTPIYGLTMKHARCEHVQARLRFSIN

| Compound | target or system | assay | system | conditions | scale | quantity | result |
| --- | --- | --- | --- | --- | --- | --- | --- |
| COc1ccc(-n2c(=O)c(C(=O)C3C(=O)CCCC3=O)nc3c(C)cccc32)cc1 | Oryza sativa var. Kinmaze | crop injury |  | paddy water application, 28 days, transplanted at two-leaf stage |  | ED20 | 100 g a.i./10 a |
| CCOc1ccc2cc(-c3nn(CC4CCN(C)CC4)c4ncnc(N)c34)ccc2n1 | Wien-I | LC-MS/MS | crossbred piglets (Landrace x Large White), infected | oral, 10 mg/kg twice daily, 0 h before dose 1, day 2 post-infection |  | plasma concentration | 0 nM |
| CC(=O)OC(CF)Cn1cnc([N+](=O)[O-])c1 (stereo not shown) | Salmonella enterica serovar Typhimurium | Ames test, Bernstein slope | TA98 |  |  | mutagenic potency | 0.55 ± 0.08 revertants/µg |
| CN(C)CCSC(=S)N1CCN(C(=O)/C=C/c2coc3ccccc3c2=O)CC1 | tomato spotted wilt virus | viral infection, half-leaf method | Nicotiana glutinosa | 500 µg/mL |  | inactivation effect | 71.6 ± 7.9% |
| COc1ccc(-n2c(=O)c(C(=O)C3C(=O)CCCC3=O)nc3c(F)cccc32)cc1 | Oryza sativa var. Kinmaze | crop injury |  | paddy water application, 28 days, transplanted at two-leaf stage |  | ED20 | > 100 g a.i./10 a |
| [64Cu+2].c1ccc(CNCc2ccc(CN3CCCN4CCNCCCN(CC4)CC3)cc2)nc1 | CXCR4 |  | NOD/SCID mouse, U87 and U87-stb-CXCR4 xenografts, heart | iv, 30 min, ex vivo |  | tissue uptake | 2.46 ± 0.52 %ID/g |
| CC(=O)OC(CCl)Cn1cncc1[N+](=O)[O-] (stereo not shown) | Salmonella enterica serovar Typhimurium | Ames test | TA100 | 72 h |  | mutagenic potency | 8.18 ± 0.15 revertants/µg |
| N=C(N)NCCC[C@@H]1NC(=O)[C@H](Cc2c[nH]c3ccccc23)NC(=O)[C@@H](CC2CCCCC2)NC(=O)[C@@H]2CCCN2C(=O)[C@@H](NC(=O)CCc2ccccc2)CCCNC1=O |  |  | C57BL/6J mouse, plasma plasma | intraperitoneal, 1 mg/kg single dose |  | MRT(0-inf) | 26.3 min |
| CCCCCc1ccc2c(c1O)C(c1ccc(OC)c(OC)c1)OC2=O (stereo not shown) | Naegleria fowleri trophozoites | AlamarBlue | ATCC 30808 | 48 h, 37 °C | reference: J774A.1 CC50 over IC50 ATCC 30808 | selectivity index | ≥ 28.2 |
| CO[C@@H]([C@@H](O)[C@H](O)C(=O)CO)[C@@H](C)O | Anabaena variabilis | uptake |  | 250 µM, 48 h |  | depletion from culture supernatant | no effect |
| CC=C1C(OC2OC(CO)C(O)C(O)C2O)OC=C(C(=O)OC)C1CC(=O)OCC1OC(OCCc2ccc(O)cc2)C(O)C(O)C1O (stereo not shown) | mouse gut microbiota | anaerobic incubation | male Balb/c mice, intestinal contents, anaerobic medium | 10 µg/mL, 15 min |  | metabolized fraction | 43.8% |
| O=C(O)[C@]1(O)C[C@H](CP(=O)(O)O)[C@@H](O)[C@H](O)C1 | Anabaena variabilis | uptake |  | 250 µM, 48 h |  | depletion from culture supernatant | no effect |
| CC(=O)OC(CF)Cn1c([N+](=O)[O-])cnc1C (stereo not shown) | Salmonella enterica serovar Typhimurium | Ames test | TA100 | 72 h |  | mutagenic potency | 8.98 ± 0.71 revertants/µg |
| COc1ccc(C2OC(=O)c3ccc(C(C)C)c(O)c32)c(OC)c1OC (stereo not shown) | Naegleria fowleri trophozoites | AlamarBlue | ATCC 30808 | 48 h, 37 °C | reference: J774A.1 CC50 over IC50 ATCC 30808 | selectivity index | ≥ 1.47 |
| CN1C(=O)[C@@H](Cc2ccc(O)cc2)NC(=O)CNC(=O)[C@H](Cc2ccc3ccccc3c2)NC(=O)[C@H](CCCNC(=N)N)NC(=O)[C@H]1CCCNC(=O)c1ccc(CNC(=O)CN2CCN(CC(=O)O)CCN(CC(=O)O)CCN(CC(=O)O)CC2)cc1 [gallium-68 labelled] |  | extrapolated to adult male | C57BL/6 mice, pancreas |  |  | absorbed dose coefficient | 0.0117 mGy/MBq |
| COc1ccc(C2OC(=O)c3ccc(C(C)C)c(O)c32)cc1OC (stereo not shown) | Naegleria fowleri trophozoites | AlamarBlue | ATCC 30808 | 48 h, 37 °C | reference: J774A.1 CC50 over IC50 ATCC 30808 | selectivity index | ≥ 3.42 |
| C=CC(=O)Nc1cc(Nc2nccc(-c3cn(C)c4ccccc34)n2)c(OCC(F)(F)F)nc1N(C)CCN(C)C | Cytochrome P450 1A2 (CYP1A2, Homo sapiens, UniProt P05177) | enzyme activity, inhibitor | human, liver microsomes | 3.33 µM |  | activity vs control | 75.3% |
| CCCc1ccc2c(c1O)C(c1ccc(OC)c(OC)c1OC)OC2=O (stereo not shown) | Naegleria fowleri trophozoites | AlamarBlue | ATCC 30808 | 48 h, 37 °C | reference: J774A.1 CC50 over IC50 ATCC 30808 | selectivity index | 1.6 |
| [64Cu+2].c1cnc(CNCc2ccc(CN3CCCN4CCNCCCN(CC4)CC3)cc2)nc1 | CXCR4 |  | NOD/SCID mouse, U87 and U87-stb-CXCR4 xenografts, muscle | iv, 30 min, ex vivo |  | tissue uptake | 0.49 ± 0.03 %ID/g |

A few entries again:
| Compound | target or system | assay | system | conditions | scale | quantity | result |
| --- | --- | --- | --- | --- | --- | --- | --- |
| [64Cu+2].c1cnc(CNCc2ccc(CN3CCCN4CCNCCCN(CC4)CC3)cc2)nc1 | CXCR4 |  | NOD/SCID mouse, U87 and U87-stb-CXCR4 xenografts, muscle | iv, 30 min, ex vivo |  | tissue uptake | 0.49 ± 0.03 %ID/g |
